Experimental data collected from several papers.
A part holds a random share of what one study measured. Changes are numbered by the printed parent chain.

Study 1
Target: CCNA2, cyclin fold, Cln2 fusion (human)
Technique: yeast growth competition, sequencing
Sample: yeast
Setting: strong parent motif
Baseline: not given
Reading: higher = stronger binding
Measurement: normalised enrichment score
Parent: CDKN1A docking peptide (human); SKACRRLFGPVDS; partner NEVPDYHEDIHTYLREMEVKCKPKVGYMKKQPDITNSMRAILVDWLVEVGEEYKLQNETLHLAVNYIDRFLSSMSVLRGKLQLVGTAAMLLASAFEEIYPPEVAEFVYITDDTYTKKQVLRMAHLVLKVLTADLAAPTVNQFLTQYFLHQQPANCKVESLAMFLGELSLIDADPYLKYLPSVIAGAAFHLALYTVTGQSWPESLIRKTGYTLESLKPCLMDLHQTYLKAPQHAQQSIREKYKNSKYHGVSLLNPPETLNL
SKACRRLFQPVDS [G9Q]: 5.84
SKAYRRLFGPVDS [C4Y]: 3.14
SNACRRLFGPVDS [K2N]: 5.49
SKAVRRLFGPVDS [C4V]: 5.25
SKACRRLFGPYDS [V11Y]: 6.11
SKACRRLFGPKDS [V11K]: 5.53
SKACRRLFLPVDS [G9L]: 5.7
SKACRRVFGPVDS [L7V]: 0.888
SKACRRLFKPVDS [G9K]: 5.18
SKAPRRLFGPVDS [C4P]: 1.73
SKACRRLPGPVDS [F8P]: 0.31
SKACRRLTGPVDS [F8T]: -0.0734
SKACRRLFGIVDS [P10I]: 4.9
SPACRRLFGPVDS [K2P]: 5.01
SKACRRLFGPVQS [D12Q]: 5.29
SCACRRLFGPVDS [K2C]: 4
SKACVRLFGPVDS [R5V]: 2.52
SKACRRLFGPHDS [V11H]: 5.52
SKACRRLFGLVDS [P10L]: 4.52
SKACRRLFHPVDS [G9H]: 5.58
SKACRRLAGPVDS [F8A]: 0.441
SKACRRLFAPVDS [G9A]: 6.04
SKACRRDFGPVDS [L7D]: -0.0215
SKACRRLFGPTDS [V11T]: 6.05
SKACTRLFGPVDS [R5T]: 1.49

Study 2
Target: Centromere-binding protein 1, full length, His-tagged (CBF1, Saccharomyces cerevisiae, UniProt P17106, residues 1-351)
Chain of UniProt P17106 (whole entry, looked up): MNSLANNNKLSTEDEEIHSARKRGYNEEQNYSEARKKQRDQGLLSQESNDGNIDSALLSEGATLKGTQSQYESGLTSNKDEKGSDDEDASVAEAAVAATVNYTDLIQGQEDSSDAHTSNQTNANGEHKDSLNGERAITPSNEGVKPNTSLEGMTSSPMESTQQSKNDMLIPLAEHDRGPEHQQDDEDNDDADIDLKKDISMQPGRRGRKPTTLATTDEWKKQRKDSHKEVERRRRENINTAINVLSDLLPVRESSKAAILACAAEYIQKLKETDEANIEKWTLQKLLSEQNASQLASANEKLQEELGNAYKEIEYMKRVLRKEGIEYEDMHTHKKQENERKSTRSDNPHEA
Technique: competition protein-binding microarray
Molecule type: double-stranded DNA, one strand shown
Sample: in vitro
Concentration: 2 µM
Setting: whole 60-bp probe, lowest competitor level
Added: Pho4 competitor, 0.05 µM
Reading: higher = stronger binding
Measurement: fluorescence intensity
Constant ends, left off below: … GTCTTGATTCGCTTGACGCTGCTG
GGGTCATTTCTCTTTACTGAATATTATGAACGAGTT: 86.4 a.u.
CCCATTTGGTTCTTGCGCGTGCTAATTCCGAGAGGC: 119 a.u.
ATATGCGATTTCCATCACGATATGTCAATTATAGGC: 182 a.u.
CTTCTGTAAATTTTTCACGTGAGCTGAGGCGCCCCG: 997 a.u.
CATTTCCATCGATGCCATGTGACAGGGTGAATCTCG: 755 a.u.
CGGGGTTAAGTTTGGCAGGTGGGTGGCTTGCAGCAG: 71.5 a.u.
TCGCCTTGTACTTAGCACGTTCTGAGGCATCGCCTA: 106 a.u.
AAGAAGCTAATTTTGCACGTAAACAACAATCTATAC: 71.6 a.u.
AGTCTCCTTTGCTCTTTCGTGATGGACCCACCGTAT: 58.8 a.u.
CTAACGAAGGTTTGGTCCGTGGGTGACAAGCCAAGT: 72.1 a.u.
CAGTAAACAAACTCGCACCGGTCGCCGTTGTTCTTA: 63.4 a.u.
CTTTCCCGATCTTGTAGTGTGGGTGTAGCACATTTG: 71.9 a.u.
CTAAATCCGCTTCTGCTCGTGGTGAGTACTTGCGCG: 56.8 a.u.
CGTCCTAGTGATTGTCACTGTACTTCCATGAGGAAG: 94.6 a.u.
CGGGGTTAAGTTTGGTTTGTGGGTGGCTTGCAGCAG: 80.3 a.u.
CGAAAATAGCTATCGCACGTATCGAATACCAAATCA: 62.1 a.u.

Study 3
Target: Histone acetyltransferase KAT6A, winged helix 2, GST fusion (KAT6A, Homo sapiens, UniProt Q92794, residues 85-181)
Technique: protein binding microarray
Molecule type: double-stranded DNA, one strand shown
Sample: in vitro
Concentration: not given
Setting: 8-mer, flanks averaged, mean of 2 arrays, mostly near background
Baseline: not given
Reading: higher = stronger binding
Measurement: E-score
Residues (chain): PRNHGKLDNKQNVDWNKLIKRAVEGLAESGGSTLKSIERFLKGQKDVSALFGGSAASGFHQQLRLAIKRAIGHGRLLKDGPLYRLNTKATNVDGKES
CGCGAAAC: -0.0685
AACCTACT: -0.144
AAGAATGG: 0.0086
GAGAGAGC: 0.00534
CACCCTCG: -0.04
ATACAGGA: -0.183
CAGAGTAA: 0.0348
GGCCGGAC: 0.139
AAACCTAA: -0.0791
GCGCTCAA: 0.0359
CGTCGGTA: -0.0694
AGACAGGG: -0.0349
ACGAAACA: 0.0574
AGCCCGAC: 0.0964
CGGCGCGC: 0.304
TGATGGAA: -0.12
CGGTGGAG: -0.0148
GACTATGC: -0.0053
TAAAGATA: -0.0216
CATACTAC: -0.203
CGAACAAA: 0.101
AGCGAATC: 0.0425
AGTGCGCC: 0.0557
AACGTCCC: -0.0962
ATGAGGTG: -0.0939

Study 4
Target: Interferon regulatory factor 3, full length, phosphomimetic (IRF3, Homo sapiens, UniProt Q14653, residues 1-427, S386D/S396D/S398D/S402D/T404D/S405D)
Technique: protein-binding microarray
Molecule type: double-stranded DNA, one strand shown
Sample: in vitro
Concentration: 2540 nM top
Setting: 60-bp whole probe
Added: salmon DNA 0.4 mg/ml
Baseline: random background probes
Reading: higher = stronger binding
Measurement: fitted relative affinity
Constant ends, left off below: GCCTAGCAC … GTCTTGATTCGCTTGACGCTGCTG
Construct (chain): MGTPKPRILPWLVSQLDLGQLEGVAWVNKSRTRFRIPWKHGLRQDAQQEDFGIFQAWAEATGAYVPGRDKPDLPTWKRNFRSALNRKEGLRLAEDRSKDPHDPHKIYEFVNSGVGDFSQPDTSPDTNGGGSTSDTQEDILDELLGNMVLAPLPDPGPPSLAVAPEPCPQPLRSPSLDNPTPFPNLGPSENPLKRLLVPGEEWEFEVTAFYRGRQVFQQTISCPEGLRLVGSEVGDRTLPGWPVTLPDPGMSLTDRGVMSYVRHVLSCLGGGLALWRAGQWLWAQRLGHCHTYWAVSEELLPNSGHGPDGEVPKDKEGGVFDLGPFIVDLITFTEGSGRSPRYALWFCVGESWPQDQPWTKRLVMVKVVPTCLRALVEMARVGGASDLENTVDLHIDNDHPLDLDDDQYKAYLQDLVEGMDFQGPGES
GACGGATTGCTTCTCCTGACGTGCTAG: 0.643 z-score
GACGATCTCAGTATGGAGACGTGCTAG: 0.481 z-score
GTCGGTTTCGGGTTTCGGGACGTGCTA: 7.29 z-score
TTAGATTTCAGAATGGATTAGTGCTAG: 1.61 z-score
GACGATATCAGTACCGAGACGTGCTAG: 0.57 z-score
GACGATCTTAGACTGGAGACGTGCTAG: 0.221 z-score
GACGGTCTCTTACTGCTGACGTGCTAG: 0.0946 z-score
GACGGTTTCGGACTGTGGACGTGCTAG: 4.74 z-score
ATGTTTTTCATTTTTTTTCAGTGCTAG: 1.75 z-score
ATAGATTCCAGTTTCGATTAGTGCTAG: 4.94 z-score
TCATGCCTCATCTTGCAGACTGTGCTA: 0.571 z-score
TCAGCTGTTTTTCTCACCACGTGCTAG: 0.939 z-score
GACGGACTGCTCTTCCTGACGTGCTAG: -0.388 z-score
TCAGCTCTAGGTTCTCTGAAGGTGCTA: -0.359 z-score
CTGAGGCTGCCGTGGCCATGGTGCTAG: -1.25 z-score
TCACCTTTCTCTCTGTGACTGTGCTAG: 5.47 z-score
TCAGCTTCCTCTCTGCCACTGTGCTAG: 0.61 z-score
AGTCTCTGCAGGGAGAGAGCGTGCTAG: -0.144 z-score
TGAGGACTGCTTCTCCTTTAGTGCTAG: -0.468 z-score
GACTGTTTCGACTATCGGGACGTGCTA: 2.43 z-score
TCACTTTTCATTACTGCACTGTGCTAG: 2.64 z-score
GACGGTTTCCTTTCCCTGTCGTGCTAG: 10.6 z-score
GCCCATCTCTGCTCCTTCTGGTGCTAG: 1.45 z-score
GACGGTTTCCGTATCGGGACGTGCTAG: 6.52 z-score
TTAGGTTTCGACCATCGGTTAGTGCTA: 1.3 z-score

Study 5
Target: RING finger protein unkempt homolog, zinc fingers 1-6, GST-SBP tag (UNK, Homo sapiens, UniProt Q9C0B0, residues 30-357)
Technique: RNA Bind-n-Seq
Molecule type: RNA
Sample: in vitro
Concentration: not given
Setting: RNA with constant flanks, ends assumed
Baseline: input RNA pool
Reading: higher = stronger binding
Measurement: bound/input enrichment
Constant ends, left off below: GGGAGUUCUACAGUCCGACGAUC … CAACAGAGGAUUGAGCAUCA
Residues (chain): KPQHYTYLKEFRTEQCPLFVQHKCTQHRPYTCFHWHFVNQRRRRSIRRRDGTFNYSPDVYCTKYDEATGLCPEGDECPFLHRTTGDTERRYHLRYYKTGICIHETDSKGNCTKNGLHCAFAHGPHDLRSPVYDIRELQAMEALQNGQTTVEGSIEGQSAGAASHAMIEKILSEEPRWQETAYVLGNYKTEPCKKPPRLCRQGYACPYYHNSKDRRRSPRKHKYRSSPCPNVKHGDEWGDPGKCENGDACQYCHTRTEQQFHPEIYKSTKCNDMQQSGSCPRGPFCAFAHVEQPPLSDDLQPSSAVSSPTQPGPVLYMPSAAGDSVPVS
GGAAGUACAAUGAUGGAGAUUGAUGGUGACAAAGGCAAGCAGGGCGGGCCCACCUACUACACCGACACCAAUGCCCUCCGCGUGCCCAGGGAGAACAUGGAGGCCAUCUCACCACUCAAG: 0.18 ratio
CACCAACAGUAUGUGCAGCGGAUAGAGAAGCAGUUUCUUUUGUAUGCAUACUGGACCGGCCUGGGGAUUUUGUCCUCUGUUGGUCUUGGAACAGGACUGCACACCUUUCUGCUUUAUCUG: 0.0479 ratio
CUUGCACGAAUUUUGUAUAUUUCAAAUAUUUCUGUAAAGGUUUCUUCUUUUCUGUCCGAGUGUGGUGUUAAGCCAGAGUCAGUGGUUUGUGUUCUCAUUAAAAUGUUUGUUUAAAUCCUA: 0.299 ratio
GAUCCACAGUGGUCUGAGGAGCAACUCAUUGCUGCAAAAUUCUGUUUUGCUGGCCUUGUUACCGGGCAGACUGAAGUGGACAUCAUGAGUCAUGCCACACAAGCUAUUUUUGAAAUUCUG: 0.363 ratio
GAGAAGAUUAUCUGUAAUUUAAAGCCGGCUUUAAAGCUUCGUCUUCGAUUCAUCACGCACAUCCGCAAGAUGGAGCCGGCAGUGCCACCCCAGGCCCUCAACAGCGGGUCUCCAGCACCU: 0.144 ratio
CUGGCUGUUGAAAGACUGUUGGAGCCUCUUGUUACACAGGUUACAACCCUGGUAAACACCAACCGUAAAGGGCCGUCUAAUAAAAAGAGAGGCCGUUCUAAGAAGGCCCAUGUUUUGGCU: 0.151 ratio
CCUGCGCCGCCUCCUCCCACCCUGAGCAGAGCCGCCGAGGAUGAUAAACACCCAGGACAGCCGUAUUUUGCCUUUGAGUAACUGUCCCCAGCUCCAGUGCUGCAGGCACAUUGUUCCAGG: 0.216 ratio
UCUGACAGGAAUAUAGUACUGUACGAUAUGAGGCAAGCUACUCCUUUGAAAAAGGUUAUCUCCGAUAUGAGAACAAAUACAAUCUGUUGGAACCCUAUGGAAGCUUUCAUUUUUACAGCA: 0.224 ratio
CGUUUUUUAUUGGAAAUGAGCACACAUUUACACAGGAGACCAAAAUCCACUUGCUAUUUCAACCGCCUGACUGUUUCUGAGCAGGUAGAGAAAUAAACAUGGAAAACAAAGACAGGGUGA: 0.482 ratio
UGCAGUUCAAAUCCUUGCCCCAGUGAGGGAAUCCCUAGGGAAGUGGGUGAUGGGACCCGAGCCGAUCCACUUCCUCCAGUUCAUUCGGCCUCUAAAGAAAUCACAGAGUCCAAGGCACAA: 0.102 ratio
CCUCCACCUAAUGCAGAUCCCAAUAUGAAGUUAUUUACAAUUCGGGGCACUCCACAGCAAACCGACUAUGCUCGACAACUCAUAGAAGAGAAGAUUGGGGGCCCAGUAAAUCCUUUAGGG: 0.315 ratio

Study 6
Target: ABI1, truncated, D143A, DHFR fusion (Arabidopsis thaliana)
Technique: DHFR PCA, deep sequencing
Sample: yeast
Setting: methotrexate growth selection, single substitutions
Added: (+)-ABA 710 µM
Baseline: wild-type fitted maximum
Reading: higher = stronger binding
Measurement: relative binding score
Parent: PYL1, truncated, DHFR fusion (Arabidopsis thaliana); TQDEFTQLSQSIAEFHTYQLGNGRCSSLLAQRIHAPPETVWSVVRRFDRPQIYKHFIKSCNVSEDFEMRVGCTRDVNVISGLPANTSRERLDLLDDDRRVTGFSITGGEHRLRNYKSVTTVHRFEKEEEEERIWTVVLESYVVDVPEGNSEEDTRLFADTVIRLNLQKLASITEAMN; partner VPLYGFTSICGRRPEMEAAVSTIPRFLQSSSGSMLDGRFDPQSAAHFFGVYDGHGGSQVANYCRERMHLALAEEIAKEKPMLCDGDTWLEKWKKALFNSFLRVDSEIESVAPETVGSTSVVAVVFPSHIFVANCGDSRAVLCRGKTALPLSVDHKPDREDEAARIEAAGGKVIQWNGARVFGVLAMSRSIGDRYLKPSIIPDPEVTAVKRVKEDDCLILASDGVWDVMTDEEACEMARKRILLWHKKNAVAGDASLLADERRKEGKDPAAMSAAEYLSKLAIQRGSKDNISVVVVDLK
G107P: 53.2%
E14H: 92.7%
H110I: -9.32%
E129S: 114%
L29G: 33.5%
M176V: 99.2%
L138V: 92.3%
A84R: 9.39%
D96Q: 82.6%
T106I: 120%
V143R: -2.95%
Q51H: 101%
R74H: -25.8%
G148L: 83.3%
K168T: 99.8%
F5D: 101%
